Measurements from different studies.

SMILES	target or system	test	test system	conditions	endpoint	value
O=C(O[C@@H]1Cc2c(O)cc(O)cc2O[C@@H]1c1cc(O)c(O)c(O)c1)c1cc(O)c(O)c(O)c1	Severe acute respiratory syndrome coronavirus 2	cytopathic effect, inhibitor	Vero C1008	1.562 µM	inhibition	0%
Cn1cnc(Cn2c(=O)[nH]/c(=N\c3cc4cn(C)nc4cc3Cl)n(Cc3cc(F)c(F)cc3F)c2=O)n1	Severe acute respiratory syndrome coronavirus 2	viral replication	Vero C1008	12.5 µM	inhibition	100%
CC(C)OC(=O)[C@H](C)N[P@](=O)(OC[C@H]1O[C@@H](n2ccc(=O)[nH]c2=O)[C@](C)(F)[C@@H]1O)Oc1ccccc1	Severe acute respiratory syndrome coronavirus 2	viral replication, inhibitor	Vero	20 µM	inhibition	40%
O=C(/C=C/c1ccc(O)c(O)c1/C=C/c1ccc(O)c(O)c1)O[C@H](Cc1ccc(O)c(O)c1)C(=O)O	Severe acute respiratory syndrome coronavirus 2	cytopathic effect	Vero C1008	25 µM	inhibition	0%
Cn1cnc(Cn2c(=O)[nH]/c(=N\c3cc4cn(C)nc4cc3Cl)n(Cc3cc(F)c(F)cc3F)c2=O)n1			human, moderate renal impairment	oral, 375 mg	dry mouth TEAE, Severe severity	0%
Nc1ncnc2c([C@@H]3N[C@H](CO)[C@@H](O)[C@H]3O)c[nH]c12	Marburg virus	viral replication	HeLa, Musoke	50 µM	inhibition	94%
C=C[C@@](C)(/C=C/c1ccc(O)cc1)CCC=C(C)C	Severe acute respiratory syndrome coronavirus 2	cytopathic effect, inhibitor	Vero C1008	25 µM	inhibition	0%
Cc1cc(NC(=O)c2cc3c(=O)n4cccc(C)c4nc3n2C)ccc1Br	Severe acute respiratory syndrome coronavirus 2	viral replication, inhibitor, qPCR	Vero C1008	10 µM	inhibition	95.6%
Nc1ncnc2c1ncn2[C@@H]1O[C@H](CSCc2ccc3ccccc3c2)[C@@H](O)[C@H]1O	Severe acute respiratory syndrome coronavirus 2	viral replication, outcome no inhibition, N-protein immunofluorescence	Calu-3	200 µM	inhibition	no inhibition
Cc1ccc(NC(=O)c2cc3c(=O)n4cccc(C)c4nc3n2C)cc1Cl	Severe acute respiratory syndrome coronavirus 2	viral replication, inhibitor, qPCR	Vero C1008	1 µM	inhibition	94.4%
CNC(=O)[C@@H](NC(=O)[C@H](CC(C)C)[C@H](O)C(=O)NO)C(C)(C)C			PB population, mouse	intravenous, 120 µg/mouse, 24 h, preincubated with venom, with: Daboia russelii venom 2.5 x LD50	survival	100%
Cn1c(C(=O)Nc2ccc3c(c2)OCCO3)cc2c(=O)n3ccccc3nc21	Severe acute respiratory syndrome coronavirus 2	viral replication, inhibitor, qPCR	Vero C1008	1 µM	inhibition	94.1%
CC[C@H](C)[C@H](NC(=O)[C@H](CC(C)C)NC(=O)[C@H](Cc1c[nH]c2ccccc12)NC(=O)[C@H](CCC(N)=O)NC(=O)[C@@H](NC(=O)[C@H](Cc1ccccc1)NC(=O)[C@H](C)NC(=O)[C@H](CCCCNC(=O)COCCOCCNC(=O)COCCOCCNC(=O)CC[C@H](NC(=O)CCCCCCCCCCCCCCCCCCC(=O)O)C(=O)O)NC(=O)[C@H](CCC(N)=O)NC(=O)[C@H](C)NC(=O)[C@@H](NC(=O)[C@H](CCCCN)NC(=O)[C@H](CC(=O)O)NC(=O)[C@H](CC(C)C)NC(=O)C(C)(C)NC(=O)[C@@H](NC(=O)[C@H](CO)NC(=O)[C@H](Cc1ccc(O)cc1)NC(=O)[C@H](CC(=O)O)NC(=O)[C@H](CO)NC(=O)[C@@H](NC(=O)[C@H](Cc1ccccc1)NC(=O)[C@@H](NC(=O)CNC(=O)[C@H](CCC(=O)O)NC(=O)C(C)(C)NC(=O)[C@@H](N)Cc1ccc(O)cc1)[C@@H](C)O)[C@@H](C)O)[C@@H](C)CC)[C@@H](C)CC)C(C)C)C(=O)N[C@@H](C)C(=O)NCC(=O)NCC(=O)N1CCC[C@H]1C(=O)N[C@@H](CO)C(=O)N[C@@H](CO)C(=O)NCC(=O)N[C@@H](C)C(=O)N1CCC[C@H]1C(=O)N1CCC[C@H]1C(=O)N1CCC[C@H]1C(=O)N[C@@H](CO)C(N)=O			healthy human	8.0 mg, single ascending dose	severe hypoglycaemia	0%

Excerpt of the above:
SMILES	target or system	test	test system	conditions	endpoint	value
Cc1cc(NC(=O)c2cc3c(=O)n4cccc(C)c4nc3n2C)ccc1Br	Severe acute respiratory syndrome coronavirus 2	viral replication, inhibitor, qPCR	Vero C1008	10 µM	inhibition	95.6%
